{"data": "Results pooled from the literature", "note": "Each numbered part is a random draw from the data of one study; scales do not carry over between parts. Several values in a cell are separate wells, animals, samples, runs or records."}
{"data": "Study 1", "Structure (SMILES)": "CC(C)n1cnc(-c2ccc(F)cc2)c1-c1ncc(C(=O)Nc2ccc(N3CCN(C)CC3)cc2)[nH]1", "technique": "phase 2a trial"}
{"test system": "idiopathic pulmonary fibrosis patients", "conditions": "oral, 30 mg once daily, disc protrusion, grade 5", "patients with TEAE": "0%"}
{"test system": "idiopathic pulmonary fibrosis patients", "conditions": "oral, dose not given, CK-MB increased, grade 5, all arms", "patients with TEAE": "0%"}
{"test system": "patients with idiopathic pulmonary fibrosis", "conditions": "60 mg once daily, endocrine disorders SOC, grade 1", "patients with TEAE": "0%"}
{"data": "Study 2", "cell line": "mouse MPNST tumor cells", "technique": "high-content immunofluorescence imaging", "measured": "nuclear SOX9", "tested at": "10 µM", "time": "12 h", "notes": "mean of 2 replicates", "relative to": "DMSO control", "direction": "higher = more nuclear SOX9"}
{"Structure (SMILES)": "O=C(c1ccc(C(=O)N2CCC(N3CCCC3)CC2)c(Nc2ccccc2)c1)N1CCC(N2CCCC2)CC1", "nuclear SOX9 intensity": "104 % of DMSO"}
{"Structure (SMILES)": "CC(C)c1cc(N2CC[C@@H](N)C2)nc(N)n1", "nuclear SOX9 intensity": "112 % of DMSO"}
{"Structure (SMILES)": "COc1cc2c(cc1OC)C(=O)C(CC1CCN(Cc3ccccc3)CC1)C2 (centres unmarked)", "nuclear SOX9 intensity": "128 % of DMSO"}
{"Structure (SMILES)": "COc1ccc(S(=O)(=O)Nc2nc(-c3cccc([N+](=O)[O-])c3)cs2)cc1OC", "nuclear SOX9 intensity": "102 % of DMSO"}
{"Structure (SMILES)": "O=C1OC(OC(=O)c2cccnc2Nc2cccc(C(F)(F)F)c2)c2ccccc21 (centres unmarked)", "nuclear SOX9 intensity": "102 % of DMSO"}
{"data": "Study 3", "Structure (SMILES)": "CN(C(=O)c1ccn2ncc(-c3ccc(C(N)=O)cc3)c2c1)c1ccc(C#N)cn1", "organism": "Cryptosporidium parvum", "technique": "time-kill", "cells": "HCT-8", "strain": "nanoluciferase-expressing", "relative to": "DMSO control"}
{"conditions": "0.00102 µM, 8 h", "luminescence remaining": "89.4% and 113%"}
{"conditions": "0.00914 µM, 72 h", "luminescence remaining": "99.5% and 77.9%"}
{"conditions": "2.222 µM, 4 h", "luminescence remaining": "116% and 131%"}
{"conditions": "0.00305 µM, 4 h", "luminescence remaining": "93.8% and 104%"}
{"data": "Study 4", "cell line": "normal organoid sample F", "technique": "CellTiter-Glo", "host": "human", "sample": "normal-adjacent epithelium", "tested at": "1 µM", "relative to": "DMSO"}
{"SMILES": "CC(=O)c1c(NS(C)(=O)=O)c2cc(-c3ccc(Cl)cc3)c(-c3ccc(Cl)cc3Cl)nc2n(C)c1=O", "viability": "118% and 104%"}
{"SMILES": "c1ccc(N2CCN(Cc3nc4ccccc4[nH]3)CC2)nc1", "viability": "114% and 107%"}
{"SMILES": "Cc1ccc2[nH]c(CNCCCc3ccncc3)cc(=O)c2c1", "viability": "129% and 134%"}
{"SMILES": "Cc1nc(N2CC[C@@H](O)C2)ncc1-c1cc(C(F)(F)F)cc2[nH]ncc12", "viability": "98.3% and 102%"}
{"SMILES": "O=C(Nc1cnc(Oc2ccc(F)cc2)nc1)N1CCc2ncccc2[C@@H]1c1ccc(F)cc1", "viability": "59.6% and 157%"}
{"SMILES": "Cc1ccc2nc(CNCCCOc3ccccc3)cc(O)c2c1", "viability": "108% and 134%"}
{"SMILES": "CCNC(=O)c1cc2c(N3CCOC[C@@H]3C)ccnc2[nH]1", "viability": "115% and 106%"}
{"SMILES": "CO[C@@H](C)c1c(Nc2ccc([C@@H](N(C)C(=O)C3CCS(=O)(=O)CC3)C(F)(F)F)cc2)cnc2cc(Cl)nn12", "viability": "155% and 139%"}
{"SMILES": "CN([C@@H]1CCc2c(CC(=O)O)c3ccccc3n2C1)S(=O)(=O)c1ccc(F)cc1", "viability": "104% and 108%"}
{"SMILES": "CC(=O)C1=C(C)N(c2cccc(C(F)(F)F)c2)C(=O)N[C@@H]1c1ccc(C#N)nc1", "viability": "115% and 109%"}
{"SMILES": "O=C(N1CCS(=O)(=O)CC1)N1C[C@H](c2ccc(OC(F)(F)F)cc2)C[C@H](c2nc(C3CC3)no2)C1", "viability": "102% and 109%"}
{"SMILES": "O=C1NC(c2ccccn2)Sc2ccccc21 (centres unmarked)", "viability": "99.7% and 110%"}
{"data": "Further values, each from its own experiment", "cell line": "THP-1", "read-out": "host cell growth"}
{"SMILES": "C[C@@H]1[C@H](O)[C@@H](C)/C=C/C=C/C=C/C=C/C=C/C=C/C=C/[C@H](O[C@@H]2O[C@H](C)[C@@H](O)[C@H](N)[C@@H]2O)C[C@@H]2O[C@](O)(C[C@@H](O)C[C@@H](O)[C@H](O)CC[C@@H](O)C[C@@H](O)CC(=O)O[C@H]1C)C[C@H](O)[C@H]2C(=O)O", "conditions": "0.02 µM", "inhibition": "-1.78% and -0.72% and -3.11% and -1.81% and -0.47% and 2.73%"}
{"SMILES": "CCCCCCCCCCCCCCCCOP(=O)([O-])OCC[N+](C)(C)C", "conditions": "0.01 µM", "inhibition": "-3.96% and -9.73% and -2.99% and -3.02% and -0.47% and -0.37%"}
